Measured values from different studies.
Numbered parts are unrelated; each lists some results of a single study.

Series 1 — method: competition protein-binding microarray; molecule type: double-stranded DNA, one strand shown; medium: in vitro; concentration: 2 µM; with: Cbf1 competitor, 0.05 µM; direction: higher = stronger binding; endpoint: fluorescence intensity
Target: Phosphate system positive regulatory protein PHO4, full length, GST-tagged (PHO4, Saccharomyces cerevisiae, UniProt P07270, residues 1-312)
Notes: whole 60-bp probe, lowest competitor level
Residues (chain): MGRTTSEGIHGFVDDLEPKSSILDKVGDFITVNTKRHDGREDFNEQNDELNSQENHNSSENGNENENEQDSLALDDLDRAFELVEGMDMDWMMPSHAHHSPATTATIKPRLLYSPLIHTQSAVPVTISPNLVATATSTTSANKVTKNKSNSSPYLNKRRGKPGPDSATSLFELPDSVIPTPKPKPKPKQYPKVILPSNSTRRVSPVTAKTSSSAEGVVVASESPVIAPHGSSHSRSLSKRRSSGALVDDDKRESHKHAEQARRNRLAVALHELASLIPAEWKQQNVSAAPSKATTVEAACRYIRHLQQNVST
GTCTTGTCTCATTTTCACGTGTTATTCCCCACTTCAGTCTTGATTCGCTTGACGCTGCTG: 12800 a.u.
AAAGCGGTAATTTGACCTGTGGGTGCAGATATCTATGTCTTGATTCGCTTGACGCTGCTG: 4760 a.u.
CTTTCCCGATCTTGATCAGTGGGTGTAGCACATTTGGTCTTGATTCGCTTGACGCTGCTG: 4000 a.u.
GAATTTGAGGAGTTCCACGTGCCAGAAAGGATTATTGTCTTGATTCGCTTGACGCTGCTG: 15300 a.u.

Series 2 — method: protein binding microarray; molecule type: double-stranded DNA, one strand shown; medium: in vitro; concentration: not given; baseline: not given; direction: higher = stronger binding; endpoint: E-score
Target: Histone acetyltransferase KAT6A, winged helix 2, GST fusion (KAT6A, Homo sapiens, UniProt Q92794, residues 85-181)
Notes: 8-mer, flanks averaged, mean of 2 arrays, mostly near background
Target sequence (chain): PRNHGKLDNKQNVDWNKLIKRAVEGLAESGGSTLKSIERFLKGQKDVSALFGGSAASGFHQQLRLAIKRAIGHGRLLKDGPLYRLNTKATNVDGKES
ATCTCGAG: -0.0594
ACTGGAAG: 0.0175
AATACCGG: 0.0511
GCTAGCAC: -0.0613
AGCAAATG: 0.0316
GCCGCAGA: 0.227
AAACGCTA: -0.168

Series 3 — method: universal PBM; molecule type: double-stranded DNA, one strand shown; medium: in vitro; concentration: 600 nM; direction: higher = stronger binding; endpoint: E-score
Target: Sal-like protein 4, full length isoform A (SALL4, Homo sapiens, UniProt Q9UJQ4, residues 1-1053)
Sequence of UniProt Q9UJQ4 (whole entry, looked up): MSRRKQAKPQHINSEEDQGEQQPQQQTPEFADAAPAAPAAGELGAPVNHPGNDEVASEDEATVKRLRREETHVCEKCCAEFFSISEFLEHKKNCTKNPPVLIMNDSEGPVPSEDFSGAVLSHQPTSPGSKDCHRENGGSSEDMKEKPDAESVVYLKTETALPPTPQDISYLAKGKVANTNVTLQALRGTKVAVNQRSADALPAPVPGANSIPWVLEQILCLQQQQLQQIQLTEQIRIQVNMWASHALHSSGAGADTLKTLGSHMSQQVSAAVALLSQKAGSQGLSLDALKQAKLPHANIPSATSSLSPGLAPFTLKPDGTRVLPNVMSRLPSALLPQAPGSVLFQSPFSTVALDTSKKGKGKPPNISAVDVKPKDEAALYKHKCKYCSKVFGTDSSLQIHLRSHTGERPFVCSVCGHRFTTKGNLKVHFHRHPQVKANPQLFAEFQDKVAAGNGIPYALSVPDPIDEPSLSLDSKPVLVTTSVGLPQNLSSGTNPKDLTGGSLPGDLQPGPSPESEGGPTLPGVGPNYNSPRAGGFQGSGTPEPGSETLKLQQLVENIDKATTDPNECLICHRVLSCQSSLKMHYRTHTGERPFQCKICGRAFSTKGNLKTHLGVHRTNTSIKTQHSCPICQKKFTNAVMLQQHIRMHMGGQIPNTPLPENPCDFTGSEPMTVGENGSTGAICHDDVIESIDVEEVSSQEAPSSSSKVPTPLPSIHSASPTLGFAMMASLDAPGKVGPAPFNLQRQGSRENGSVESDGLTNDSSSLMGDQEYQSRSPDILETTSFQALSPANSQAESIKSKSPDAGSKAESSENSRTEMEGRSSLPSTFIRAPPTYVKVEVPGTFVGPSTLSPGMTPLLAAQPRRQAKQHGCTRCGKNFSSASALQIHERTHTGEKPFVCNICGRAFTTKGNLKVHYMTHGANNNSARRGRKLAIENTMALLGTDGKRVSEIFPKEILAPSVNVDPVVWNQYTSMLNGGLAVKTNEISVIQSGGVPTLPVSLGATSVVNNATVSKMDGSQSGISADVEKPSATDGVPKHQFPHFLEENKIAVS
Notes: 8-mer, flanks averaged, mean of replicates
AGCTCTGG: -0.119
ATCGATAA: 0.225
AGGAGAGC: -0.297
GGTTTCTA: -0.0249
ATGGTGCG: -0.0764
ATGCTAAC: 0.106
AACCCACT: -0.0141

Mixed results
PhoQ, residues 284 288 289 292 302 303 GTAMQF
fold induction (PhoP, residues 12 14 15 18 19 GQAIL (Escherichia coli, UniProt P23836); Sort-seq, refers to: YFP reporter; E. coli; PhoQ-PhoP variant library, with: 10 µM Mg2+; baseline: high Mg2+ state, higher = stronger signaling): 10.8

Excerpt of the above (series 2):
ACTGGAAG: 0.0175
AATACCGG: 0.0511
GCTAGCAC: -0.0613
